# Results of several laboratories.
# Every numbered part comes from another study and shows a few of its results, in no order. Substitutions count along the parent as printed.
# Chain of UniProt P41143 (whole entry, looked up): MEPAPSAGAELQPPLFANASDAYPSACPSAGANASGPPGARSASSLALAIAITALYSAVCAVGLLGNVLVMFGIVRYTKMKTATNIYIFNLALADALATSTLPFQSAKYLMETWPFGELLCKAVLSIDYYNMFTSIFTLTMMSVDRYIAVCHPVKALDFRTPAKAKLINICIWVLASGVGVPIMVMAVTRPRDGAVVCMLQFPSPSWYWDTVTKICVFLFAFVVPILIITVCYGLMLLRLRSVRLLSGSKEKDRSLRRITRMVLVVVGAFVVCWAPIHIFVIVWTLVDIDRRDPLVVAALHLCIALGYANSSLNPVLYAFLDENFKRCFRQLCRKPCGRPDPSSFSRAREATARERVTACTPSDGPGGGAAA

# Set 1
# Target: CCNB3, cyclin fold, Cln2 fusion (human)
# Method: yeast growth competition, sequencing
# Sample: yeast
# Setting: weak parent motif
# Relative to: not given
# Reading: higher = stronger binding
# Starting sequence: viral docking peptide; PGASRRLFGSSAD; partner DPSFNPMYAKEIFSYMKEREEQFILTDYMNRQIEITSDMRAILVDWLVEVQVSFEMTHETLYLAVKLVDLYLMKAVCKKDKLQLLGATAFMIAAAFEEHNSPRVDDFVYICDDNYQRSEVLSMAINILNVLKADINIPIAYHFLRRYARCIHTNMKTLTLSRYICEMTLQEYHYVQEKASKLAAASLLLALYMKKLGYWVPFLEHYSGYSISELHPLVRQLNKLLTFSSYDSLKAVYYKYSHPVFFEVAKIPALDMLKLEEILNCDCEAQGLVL
Change,normalised enrichment score
PGASRRLLGSSAD [F8L],0.464
PGASRRLFASSAD [G9A],0.798
PGASRRLFGSSAA [D13A],0.184
AGASRRLFGSSAD [P1A],0.475
PGASRALFGSSAD [R6A],-0.279
PGAARRLFGSSAD [S4A],0.3
PGASRRLFGASAD [S10A],-0.131
PGASKRLFGSSAD [R5K],-0.0378

# Set 2
# Target: UDP-N-acetylglucosamine--peptide N-acetylglucosaminyltransferase 110 kDa subunit (OGT, Homo sapiens, UniProt O15294)
# Chain of UniProt O15294 (whole entry, looked up): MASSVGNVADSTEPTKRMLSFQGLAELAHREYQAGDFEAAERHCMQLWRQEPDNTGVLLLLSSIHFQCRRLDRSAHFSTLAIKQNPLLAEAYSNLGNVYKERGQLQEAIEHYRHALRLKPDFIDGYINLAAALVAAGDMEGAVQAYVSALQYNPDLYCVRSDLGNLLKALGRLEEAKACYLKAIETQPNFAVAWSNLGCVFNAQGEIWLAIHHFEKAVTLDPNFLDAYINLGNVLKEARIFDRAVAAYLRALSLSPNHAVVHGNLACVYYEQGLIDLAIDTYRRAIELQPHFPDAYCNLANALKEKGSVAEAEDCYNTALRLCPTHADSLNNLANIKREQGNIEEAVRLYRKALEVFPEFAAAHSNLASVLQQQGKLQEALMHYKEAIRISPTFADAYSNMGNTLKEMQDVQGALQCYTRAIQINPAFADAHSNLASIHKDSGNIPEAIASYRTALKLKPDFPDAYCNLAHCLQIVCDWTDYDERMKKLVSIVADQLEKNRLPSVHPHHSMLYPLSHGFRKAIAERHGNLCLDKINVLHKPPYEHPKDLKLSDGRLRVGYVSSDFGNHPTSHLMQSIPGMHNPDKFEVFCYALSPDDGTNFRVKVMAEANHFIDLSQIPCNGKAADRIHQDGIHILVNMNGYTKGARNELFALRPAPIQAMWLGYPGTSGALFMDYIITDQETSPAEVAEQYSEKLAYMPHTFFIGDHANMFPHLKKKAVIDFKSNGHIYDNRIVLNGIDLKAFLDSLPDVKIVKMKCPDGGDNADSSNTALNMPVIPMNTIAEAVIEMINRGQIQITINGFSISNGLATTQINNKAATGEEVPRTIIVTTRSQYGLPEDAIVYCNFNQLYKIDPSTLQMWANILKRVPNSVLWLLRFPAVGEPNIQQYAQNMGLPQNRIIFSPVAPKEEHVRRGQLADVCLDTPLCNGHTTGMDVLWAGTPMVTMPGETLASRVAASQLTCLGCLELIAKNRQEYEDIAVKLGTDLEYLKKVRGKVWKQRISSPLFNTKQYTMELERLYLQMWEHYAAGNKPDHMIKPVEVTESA
# Read-out: binding
# Method: phage display NGS
# Form: peptide
# Concentration: concentration not given
# Relative to: input library
Sequence,enrichment fold change
HSKVHSHDVVTIYHH,3.74
APDIFFHPKYYIKI,13.9
WGPQHMRHHYAHQHT,5.72
HIHKRDTHWAWYTIG,3.23
VEHRPHYHHDKQQGT,4.91
SVFVHMQHRHGPHY,14.7
TYHAAHVRTWSQHHA,6.22
QGDYMPFYQLRSKIT,6.19

# Set 3
# Target: tungstate, free oxyanion
# Method: microfluidic competitive inhibition
# Sample: in vitro, cell-free expressed
# Concentration: not given
# Setting: derived from inhibition constants, unchanged parent 2230 nM
# Reading: lower = stronger binding
# Starting sequence: PafA, mature enzyme, eGFP fusion (Elizabethkingia meningoseptica, UniProt Q9KJX5); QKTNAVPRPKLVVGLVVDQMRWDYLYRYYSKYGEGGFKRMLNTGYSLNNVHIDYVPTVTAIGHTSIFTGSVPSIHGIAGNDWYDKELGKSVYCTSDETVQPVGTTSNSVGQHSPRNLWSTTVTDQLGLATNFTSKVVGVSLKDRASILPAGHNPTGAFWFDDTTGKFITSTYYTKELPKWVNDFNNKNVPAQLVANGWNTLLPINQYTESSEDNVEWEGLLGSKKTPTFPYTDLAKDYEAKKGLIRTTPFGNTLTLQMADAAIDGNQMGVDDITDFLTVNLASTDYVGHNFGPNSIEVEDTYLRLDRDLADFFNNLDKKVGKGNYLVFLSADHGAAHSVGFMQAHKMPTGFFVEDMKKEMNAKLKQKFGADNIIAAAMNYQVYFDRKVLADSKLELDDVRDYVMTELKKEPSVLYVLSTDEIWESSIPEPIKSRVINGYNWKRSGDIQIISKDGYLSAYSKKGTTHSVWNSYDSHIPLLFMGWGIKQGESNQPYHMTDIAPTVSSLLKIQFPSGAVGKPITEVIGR
Change,oxyanion analog dissociation constant [nM]
N199V,2110
L394V,2090
A191V,2190
T174V,2310
E212G,1950
F480V,1920
I499G,1030
Y325V,2080

# Single results of other studies
Compound,target,system,endpoint,result
CCN(CC)C(=O)c1ccc(C2=CC3(CCNCC3)Oc3cccc(O)c32)cc1,"Delta-type opioid receptor, with GoB (OPRD1, Homo sapiens, UniProt P41143)",human cells,EC50,17.7 nM

# Some of these lines once more (set 3):
Change,oxyanion analog dissociation constant [nM]
L394V,2090
A191V,2190
T174V,2310
